Measurements gathered from unrelated publications.
Numbered parts are unrelated; each lists some results of a single study.

Study 1
Target: Ras GTPase-activating protein-binding protein 1, full length (G3BP1, Homo sapiens, UniProt Q13283)
UniProt Q13283, sequence (whole entry, looked up): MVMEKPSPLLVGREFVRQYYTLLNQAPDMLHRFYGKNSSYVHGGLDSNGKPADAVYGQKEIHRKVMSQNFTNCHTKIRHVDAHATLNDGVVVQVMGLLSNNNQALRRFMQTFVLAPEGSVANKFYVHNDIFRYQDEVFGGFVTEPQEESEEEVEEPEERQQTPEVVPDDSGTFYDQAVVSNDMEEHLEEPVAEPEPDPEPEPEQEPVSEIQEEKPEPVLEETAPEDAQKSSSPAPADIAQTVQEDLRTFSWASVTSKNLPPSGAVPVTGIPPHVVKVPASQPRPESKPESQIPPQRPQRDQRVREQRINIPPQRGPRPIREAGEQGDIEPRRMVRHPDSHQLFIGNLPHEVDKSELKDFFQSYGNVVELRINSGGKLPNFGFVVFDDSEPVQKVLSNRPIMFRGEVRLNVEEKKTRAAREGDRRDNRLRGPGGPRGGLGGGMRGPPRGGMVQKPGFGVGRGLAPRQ
Method: RNA Bind-n-Seq
Molecule type: RNA
Medium: in vitro
Concentration: 200 nM
Setting: whole 134-nt RNA, ends assumed
Together with: 150 mM LiCl
Baseline: input library
Reading: higher = stronger binding
All molecules: 7-deaza-guanosine replaces G
Constant ends, left off below: GGGAGUUCUACAGUCCGACGAUC … UGGAAUUCUCGGGUGUCAAGG
Oligonucleotide | log2 enrichment
ACCAUGCAGGUGGGCAUCUUUGGGAAGUGGGGAAAGGGGGGGAUAGGGAGGGGGGUAACACUUUGGGAACAGGUGGUCCCAGGUCGUUUC | 0.212
UCCUGUGCUACACAUCGUAUGUACCGAAUCAAACCCCCAAAUUUUUUUAAAUUUUUAAAAAAGUAUUAUGUUACGCCGUUCGGAUCUGCA | 1.21
UCAAGUCCUGUGCUACACAUCGUAUGUACCGAAUCGGGGAAGGGGAAGGGAAGGAAAGUAUUAUGUUACGCCGUUCGGAUCUGCACUUCC | -0.768
UCCUGUGCUACACAUCGUAUGUACCGAAUCGGGGAAAAAGGGAAAAAGGGGAAAAAGGGGAAAGUAUUAUGUUACGCCGUUCGGAUCUGC | -0.109
CAAGUCCUGUGCUACACAUCGUAUGUACCGAAUCGGAAAAAGGUGGUUUUUUUGGAAAGUAUUAUGUUACGCCGUUCGGAUCUGCACUUC | -1.15
UCAAGUCCUGUGCUACACAUCGUAUGUACCGAAUCGGAAAGGAAAGGAAAGGGGAAAGUAUUAUGUUACGCCGUUCGGAUCUGCACUUCC | -0.402
UUAGAAGAACCCGAAGAACCUAAAGUGCUAACACCAGAAGAACAAUUAGCAGAUAAACUGCGGCUAAAGAAAUUACAGGAAGAGUCAGAC | 0.0987
GCAGGAAGUAAAAACAAAUGGAAAUGCUUCGGAUAGUGGCAGGGGUGGGGGUUGCUAAGGAAAGGGUGGGAUGGGAGUGGGUAAAGAGCU | 0.236
ACCAUGCAGGUGGGCAUCUUUGGGAAGUGGGGCAAGGGGGGGAUAGGGAGGGGGGUAACACUUUGGGAACAGGUGGUCCCAGGUCGUAAA | 0.136
UCAAGUCCUGUGCUACACAUCGUAUGUACCGAAUCGGGGUGGGGUGGGGUGGGGAAAGUAUUAUGUUACGCCGUUCGGAUCUGCACUUCC | -0.239

Study 2
Target: RING finger protein unkempt homolog, zinc fingers 1-6, GST-SBP tag (UNK, Homo sapiens, UniProt Q9C0B0, residues 30-357)
Method: RNA Bind-n-Seq
Molecule type: RNA
Medium: in vitro
Concentration: not given
Setting: RNA with constant flanks, human and mouse sites, ends assumed
Baseline: input RNA pool
Reading: higher = stronger binding
Constant ends, left off below: GGGAGUUCUACAGUCCGACGAUC … CAACAGAGGAUUGAGCAUCA
Residues (chain): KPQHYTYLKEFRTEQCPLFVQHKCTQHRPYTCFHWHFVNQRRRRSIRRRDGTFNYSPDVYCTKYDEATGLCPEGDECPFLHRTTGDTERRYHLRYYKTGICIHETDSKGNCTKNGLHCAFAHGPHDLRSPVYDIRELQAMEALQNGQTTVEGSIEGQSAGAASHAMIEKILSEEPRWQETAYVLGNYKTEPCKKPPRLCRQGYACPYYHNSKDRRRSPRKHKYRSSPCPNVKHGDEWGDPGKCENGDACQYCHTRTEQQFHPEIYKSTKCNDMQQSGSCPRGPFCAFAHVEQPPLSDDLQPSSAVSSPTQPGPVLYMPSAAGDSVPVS
Oligonucleotide | bound/input enrichment [ratio]
CCAUCGUCAACUCACACCAUUCCAUUCUAUCCCAACCCCUUGCACCCUAGGCCAUUUCCUAGCUCCCGCCUUCCUCCAGGAAUUAUCGGGGGUGAAUAUGACCAAAGACCAACACUUCCC | 0.27
CUGUGUAGUCGCAGUGACACUAUCGAUACUGUUUCUGUGCCUUAUGUUUUUCGGUAUUUUGUAGCUGAACUGGCAGCUAUGAACAUCAAAGUGAAACUGGAUGUUGUUUAACUUGAUGUU | 0.207
CCCAGGCGUGUUUCAGCUGCUGGUGUAGUUAUUUGAGGCGAGCUUUAACUCUGCUCCUGGUUCCUUUGCAUUCUGGUGAAGCCAAGCAGCGCUCACUCAGUGUUCUUCAUUCAGUGCAAC | 0.241
CGCCAGCAGAUGAAGGAUGCAGCAGUCUCGGCCCUGGCUGCUCUAUGCAGUGAAUAUUACAUGAAGGAGCCGGGGGAGGCAGAUCCCGCAAUUCAGGAGGAGCUGAUCACGCAGUACCUG | 0.12
CGGCCGUGGUGUAUUGUGGUCACUGCUGCUCCCUCUCCUUUACCCCCCACCCCCAUUUUGUUUUUGUAAACCAUCCCGUCCACAGUUGUCAGUUGUGAAGAGGGGACCAGAUGUCACUCU | 0.267
GGUUUCCCCAAAGUCAGUAUUCUCCUCAGGGAUGCCAUUGAAAAGUUAUUUCCUGAUGCCAUUAGACUGAGAUUUGAAGACAUUCAGCAGAAUAAUGACAUAGUCCAAAGUCUUGCAGCC | 0.278
CUGUGUGUAAAAUAUUUAACCAUAAGUCAAGUACAGUGUACUAUGUUUAAUAAAGUUACAUUUAAUGCAUUUAUUGCAUAUAUGAAUAUAUACAUGAAGAGGCUUUAUGUCUUCUGGUAU | 0.202
GGAAGGCGCUGUUUGAAGCUUGUGGCUCUUUGAAGUCUGAAAGACAUCGGCAGAGGACCCUUUAGACGGCACAACUGUUACUCUAGGGAGUUGAUUUUUUUUUCUUAAGAGAUUUAAAAA | 1.37
UCCACCUCAAGGUCUUUGCAAAGCCCAAAAUCACCUAUGUAGAGAAUCAGACGGCCAUGGAACUAGAGGAGCAAGUCACUCUGACCUGUGAAGCCUCCGGAGACCCCAUCCCCUCCAUCA | 0.0863
UUUGGGUGGUAUUGAUGGAGCGGUGGAUUUUCCUCCAAGUGGCUAAAUGCAAUUUGACAUACUUUUCAUCCAAAGUUUUGUACAUCCUGUUGUUUUCUAAUGGAAAAAAAAAUGUUAAUA | 0.259
GAGGGAAGAGAUGAAUCUUCAAGGAUACCUACCUCUGAUACAUCAUCUAGAUCUCAUAUUUUUAGAAGAGAAUCAAAUGAAGUGGUUCACCUUGAAGCACAGAAUGAUCCUCUUGGAGCU | 0.562

Study 3
Target: RNA binding protein fox-1 homolog 2, RRM domain, GST-SBP tag (RBFOX2, Homo sapiens, UniProt O43251-10, residues 100-194)
Method: RNA Bind-n-Seq
Molecule type: RNA
Medium: in vitro
Concentration: 365 nM
Setting: natural RNA segment, single round, ends assumed
Baseline: no-protein control
Reading: higher = stronger binding
Constant ends, left off below: GGGAGUUCUACAGUCCGACGAUC … UGGAAUUCUCGGGUGCCAA
Construct (chain): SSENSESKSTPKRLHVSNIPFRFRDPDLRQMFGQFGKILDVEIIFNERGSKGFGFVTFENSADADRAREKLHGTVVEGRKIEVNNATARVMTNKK
Oligonucleotide | RBNS enrichment (R)
ACUCAGAAGAGACCAUCCAAUCAUGAGCAAGUGACCCAGUCCCCUUUCCUCUCUGUAGAGGGAUGACUGACAGUUUUAUCAAUUCUCCUCACCAGGGUUGACUGCCUUCA | 0.229
AAUCUGAUUCAGAAUGCUUUUCUCAGCUGACAUACAGAGCACUAAAUAUUUUAAGGCAAGUCCAUAGGUCUGAAUCUCUUAAGAAUUCUCGGCCUCUGUGGGAUUUAGGG | 0.573
UGGCUGUGGAGAAGCCCAGGCCCUUAGAAGAAUCACUGUAUUUGCCACCUGUACCUCACGGCUGCUAUGCUUGCGUGUUUCCACUGACGAUGGGGCCUCUUUCUAAAGGC | 0.342
AUCAGGCCCAGGAUCCCGGACCAAAGACUGAGAUGACCCUUCCAAUAAAAGGCCAUUUCGGACUCUGUCCUGCUUGGACUAAUUGGCCUUCUGGACCCCUCCACUCUGGC | 0.254
UAUAAGAGGUAUAGCCUGGGCUAAUACCGUCCAAGUUACAACUCCUUGCUUGCUUUCUGUUCCUUCUAGCCUUGGUGACUUCCACCAGGAAGAGAAUACCCCCUCUCUAC | 1.94
CUCCCGCCUACCCCGUCGGCAUUUUCUUCUUCCACCAGCUUUUACUGAACUUUUUGGCACUGCUUUGGAUUGGGGUCAAUUGCAGUCCACGUAACUGGCUGCAGAGAAAU | 0.552
CAUUUGGUUUAAGCAGGAAUCCUAGAAGCAAAUGGAUGGGGAUAAGAAUAGGUCAUUUUCUAUUCACCAUCCUUUACUAUUAAGGGAAAGGAAAAGAACACUAGCUAAGG | 0.392
CAUUUGCCUAACAGACUUUUGCAGAGGCGAUGGCAGAGAGCAGCUGCAGGCAUGGUCCCUGGAGCCGAGCCUUCACCACGCACUCGUCCAAGUUCGGAUGCGGGAACCUG | 0.444
UCUCCCUCCCCUCUCAGAACAUACUGAUUGGGAGGUGCGUGUUCAGCAGAACCUGCACACAGGACAGCGGGAAAAAUCGAUGAGCGCCACCUCUUUAAAAACUCACUUAC | 0.559
GACAGACAUCAAGUGCCAGAUGUUGUCUGAACUAAUCGAGCACUUCUCACCAAACUUCAUGUAUAAAUAAAAUACAUAUUUUUAAAACAAACCAAUAAAUGGCUUACAUG | 0.635
GAGAGUUUGCAAACACACAGCGGCCCACAGCUUCACGUGGUGGUGUGCAGUGUGAGGCAGCUCCUUGGCUUUCCUGGUUUUCACAACAAGCUAGAGAUUUUCAAAGCUAC | 0.234
UCUAAGUCCAGGACCUCUACCCUGAGGACUCAGCCCUUAGCUCUGGAGAAGGAACAUAUUUGAUAGAUUUUUCUUAACAAGUUAAAAAAUGCAGCUCCUUUCUGUGCUGG | 0.342

Study 4
Target: Protein C-ets-1 (ETS1, Homo sapiens, UniProt P14921, residues 1-441, full length assumed)
UniProt P14921, sequence (whole entry, looked up): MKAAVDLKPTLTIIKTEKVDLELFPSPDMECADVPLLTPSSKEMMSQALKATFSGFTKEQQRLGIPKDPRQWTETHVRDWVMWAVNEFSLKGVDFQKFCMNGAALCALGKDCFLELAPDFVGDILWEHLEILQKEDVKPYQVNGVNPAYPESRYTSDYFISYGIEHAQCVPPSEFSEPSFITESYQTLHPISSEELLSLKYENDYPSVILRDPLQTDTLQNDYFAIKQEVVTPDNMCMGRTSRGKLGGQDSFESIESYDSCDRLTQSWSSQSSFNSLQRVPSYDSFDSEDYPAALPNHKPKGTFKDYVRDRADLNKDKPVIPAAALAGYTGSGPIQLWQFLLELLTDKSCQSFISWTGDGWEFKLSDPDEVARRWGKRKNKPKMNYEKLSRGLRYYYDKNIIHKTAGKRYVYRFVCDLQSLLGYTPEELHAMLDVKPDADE
Method: protein-binding microarray
Molecule type: double-stranded DNA, one strand shown
Medium: in vitro
Concentration: not given
Setting: k-mer, scored over probes, only values ≥0.25
Reading: higher = stronger binding
Oligonucleotide | E-score
ATATTTCC | 0.443
GAGCGGAA | 0.461
CTTCCACA | 0.284
ACTTTCCT | 0.261
CCGACTTC | 0.266
GTGACGGA | 0.301
GGGTGGGA | 0.295
GAGCTTCC | 0.406
AGGTTTCC | 0.356
AGTTTCCC | 0.317
AGTACCGG | 0.307
CGGACGTC | 0.424
CCCACCCC | 0.312
CGCGGATA | 0.3
CGTTTTCC | 0.294
ACCGGATC | 0.438

Study 5
Target: Histone acetyltransferase KAT6A, winged helix 1, GST fusion (KAT6A, Homo sapiens, UniProt Q92794, residues 1-85)
Method: protein binding microarray
Molecule type: double-stranded DNA, one strand shown
Medium: in vitro
Concentration: not given
Setting: 8-mer, flanks averaged, mean of 2 arrays, mostly near background
Baseline: not given
Reading: higher = stronger binding
Target sequence (chain): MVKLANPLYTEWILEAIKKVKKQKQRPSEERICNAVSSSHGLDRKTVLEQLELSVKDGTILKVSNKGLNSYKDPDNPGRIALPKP
Oligonucleotide | E-score
AAACTGGT | -0.083
AGCTTGCA | -0.141
CTTACTGA | -0.0576
TCGTAGAA | -0.272
ACCTAAGA | -0.125
CACCAATC | -0.0647
GATACCAC | -0.0533
GCCACAAA | -0.0277
CCCCGCCC | 0.155
GAACTCCC | 0.0506
CGGGCCGC | 0.41
GCAAGATA | -0.121
GTGAGCAA | -0.127
AACAAGTT | -0.196
GGCGATTA | 0.228
CTTCGTAC | -0.00807
GTGGATAA | -0.137
ACGTACTC | 0.101
ACATATCT | -0.107
AGCCTTTG | -0.172
CTTCAAAA | -0.304
